# Experimental data pooled from the literature.
# Each numbered part is a random draw from the data of one study; scales do not carry over between parts.
# UniProt Q5S007, sequence (whole entry, looked up): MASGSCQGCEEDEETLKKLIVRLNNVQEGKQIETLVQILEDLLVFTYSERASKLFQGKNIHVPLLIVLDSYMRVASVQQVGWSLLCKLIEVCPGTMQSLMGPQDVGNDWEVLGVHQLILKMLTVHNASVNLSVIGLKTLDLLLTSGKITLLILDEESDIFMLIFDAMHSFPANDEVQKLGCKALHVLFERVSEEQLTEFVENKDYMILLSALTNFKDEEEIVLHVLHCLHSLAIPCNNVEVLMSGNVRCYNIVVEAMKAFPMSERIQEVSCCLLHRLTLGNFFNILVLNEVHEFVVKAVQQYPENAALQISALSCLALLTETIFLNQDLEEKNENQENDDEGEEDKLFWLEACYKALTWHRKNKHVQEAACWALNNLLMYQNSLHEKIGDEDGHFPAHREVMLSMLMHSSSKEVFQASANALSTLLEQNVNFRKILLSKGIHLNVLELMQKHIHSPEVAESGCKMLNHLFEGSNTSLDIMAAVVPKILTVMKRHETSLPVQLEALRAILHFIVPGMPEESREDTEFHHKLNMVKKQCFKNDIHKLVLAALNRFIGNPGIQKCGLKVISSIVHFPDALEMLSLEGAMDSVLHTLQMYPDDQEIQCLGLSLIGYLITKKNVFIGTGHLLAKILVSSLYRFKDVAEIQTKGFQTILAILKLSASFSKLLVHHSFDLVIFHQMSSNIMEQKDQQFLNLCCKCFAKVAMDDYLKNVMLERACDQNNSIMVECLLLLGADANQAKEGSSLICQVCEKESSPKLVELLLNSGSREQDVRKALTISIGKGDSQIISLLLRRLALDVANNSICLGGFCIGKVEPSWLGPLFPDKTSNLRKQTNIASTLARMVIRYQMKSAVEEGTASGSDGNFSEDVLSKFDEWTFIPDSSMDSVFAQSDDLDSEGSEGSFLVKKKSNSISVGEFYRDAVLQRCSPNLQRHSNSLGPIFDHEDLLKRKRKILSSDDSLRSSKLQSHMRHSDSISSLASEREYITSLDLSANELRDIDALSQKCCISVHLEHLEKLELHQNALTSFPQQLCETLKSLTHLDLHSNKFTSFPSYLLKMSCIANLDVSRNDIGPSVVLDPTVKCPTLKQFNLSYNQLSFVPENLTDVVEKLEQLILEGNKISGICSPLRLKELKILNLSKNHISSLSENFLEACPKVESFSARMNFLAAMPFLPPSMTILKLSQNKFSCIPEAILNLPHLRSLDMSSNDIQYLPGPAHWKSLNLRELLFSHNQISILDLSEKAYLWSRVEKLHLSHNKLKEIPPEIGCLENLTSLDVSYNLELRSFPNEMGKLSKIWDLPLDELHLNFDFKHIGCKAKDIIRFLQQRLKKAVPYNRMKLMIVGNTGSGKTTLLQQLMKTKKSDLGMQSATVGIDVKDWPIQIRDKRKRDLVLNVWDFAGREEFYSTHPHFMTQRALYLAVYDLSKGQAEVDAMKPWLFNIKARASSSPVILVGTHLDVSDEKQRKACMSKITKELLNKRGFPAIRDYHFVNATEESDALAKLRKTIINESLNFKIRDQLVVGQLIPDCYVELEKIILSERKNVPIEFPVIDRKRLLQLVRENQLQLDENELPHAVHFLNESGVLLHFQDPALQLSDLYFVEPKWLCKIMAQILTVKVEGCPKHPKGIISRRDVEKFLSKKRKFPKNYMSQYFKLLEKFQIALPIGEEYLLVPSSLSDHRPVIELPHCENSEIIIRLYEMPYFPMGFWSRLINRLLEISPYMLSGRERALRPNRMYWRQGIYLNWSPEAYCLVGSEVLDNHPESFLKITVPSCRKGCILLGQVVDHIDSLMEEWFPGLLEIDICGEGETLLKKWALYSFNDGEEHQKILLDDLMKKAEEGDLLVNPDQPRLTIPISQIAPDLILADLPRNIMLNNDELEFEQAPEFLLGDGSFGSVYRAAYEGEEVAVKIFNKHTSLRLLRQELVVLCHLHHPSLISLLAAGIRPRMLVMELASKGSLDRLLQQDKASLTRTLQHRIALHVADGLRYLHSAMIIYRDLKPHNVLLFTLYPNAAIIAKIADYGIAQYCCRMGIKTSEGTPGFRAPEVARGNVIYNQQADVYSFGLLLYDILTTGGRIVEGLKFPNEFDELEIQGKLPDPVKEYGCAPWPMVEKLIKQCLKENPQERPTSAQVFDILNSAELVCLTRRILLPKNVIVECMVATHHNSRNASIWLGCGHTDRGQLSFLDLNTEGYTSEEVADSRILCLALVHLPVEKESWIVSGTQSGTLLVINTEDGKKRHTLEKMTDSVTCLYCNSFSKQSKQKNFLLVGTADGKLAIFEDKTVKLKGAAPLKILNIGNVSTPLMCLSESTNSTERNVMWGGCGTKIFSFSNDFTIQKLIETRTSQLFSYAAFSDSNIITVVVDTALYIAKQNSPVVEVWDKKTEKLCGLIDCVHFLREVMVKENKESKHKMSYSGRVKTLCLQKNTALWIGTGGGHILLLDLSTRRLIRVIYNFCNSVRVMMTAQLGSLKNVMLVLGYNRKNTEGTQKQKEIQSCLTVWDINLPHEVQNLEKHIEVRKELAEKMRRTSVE
# UniProt O95747, sequence (whole entry, looked up): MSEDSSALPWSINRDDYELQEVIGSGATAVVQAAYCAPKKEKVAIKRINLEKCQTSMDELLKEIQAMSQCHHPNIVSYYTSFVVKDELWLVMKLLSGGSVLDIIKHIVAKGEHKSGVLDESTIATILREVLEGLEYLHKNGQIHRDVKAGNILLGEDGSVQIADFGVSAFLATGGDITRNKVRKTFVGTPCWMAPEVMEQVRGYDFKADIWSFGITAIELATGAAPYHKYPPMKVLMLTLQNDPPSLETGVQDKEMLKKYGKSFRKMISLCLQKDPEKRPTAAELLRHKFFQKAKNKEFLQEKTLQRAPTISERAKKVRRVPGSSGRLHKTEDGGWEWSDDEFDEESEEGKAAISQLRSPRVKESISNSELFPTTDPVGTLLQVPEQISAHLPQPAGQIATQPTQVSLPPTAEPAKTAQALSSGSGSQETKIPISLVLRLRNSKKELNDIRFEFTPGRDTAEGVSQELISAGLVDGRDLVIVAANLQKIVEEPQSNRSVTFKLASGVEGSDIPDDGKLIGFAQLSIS
# UniProt P43403, sequence (whole entry, looked up): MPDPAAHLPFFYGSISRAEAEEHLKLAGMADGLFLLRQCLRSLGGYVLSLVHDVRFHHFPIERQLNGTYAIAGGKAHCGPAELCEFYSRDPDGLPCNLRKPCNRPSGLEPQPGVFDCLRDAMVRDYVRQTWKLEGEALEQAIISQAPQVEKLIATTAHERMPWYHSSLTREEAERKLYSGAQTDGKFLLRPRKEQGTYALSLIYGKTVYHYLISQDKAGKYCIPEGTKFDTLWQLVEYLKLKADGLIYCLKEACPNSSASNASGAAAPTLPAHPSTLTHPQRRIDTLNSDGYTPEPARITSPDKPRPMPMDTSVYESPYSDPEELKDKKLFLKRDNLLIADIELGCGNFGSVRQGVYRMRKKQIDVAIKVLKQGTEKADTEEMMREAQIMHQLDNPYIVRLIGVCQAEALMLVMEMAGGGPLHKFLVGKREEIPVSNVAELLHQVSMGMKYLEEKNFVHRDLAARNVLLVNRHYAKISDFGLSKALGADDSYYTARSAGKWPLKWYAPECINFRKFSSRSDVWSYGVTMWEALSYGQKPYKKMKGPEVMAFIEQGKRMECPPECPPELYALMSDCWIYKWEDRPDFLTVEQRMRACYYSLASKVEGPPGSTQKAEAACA
# UniProt O60285, sequence (whole entry, looked up): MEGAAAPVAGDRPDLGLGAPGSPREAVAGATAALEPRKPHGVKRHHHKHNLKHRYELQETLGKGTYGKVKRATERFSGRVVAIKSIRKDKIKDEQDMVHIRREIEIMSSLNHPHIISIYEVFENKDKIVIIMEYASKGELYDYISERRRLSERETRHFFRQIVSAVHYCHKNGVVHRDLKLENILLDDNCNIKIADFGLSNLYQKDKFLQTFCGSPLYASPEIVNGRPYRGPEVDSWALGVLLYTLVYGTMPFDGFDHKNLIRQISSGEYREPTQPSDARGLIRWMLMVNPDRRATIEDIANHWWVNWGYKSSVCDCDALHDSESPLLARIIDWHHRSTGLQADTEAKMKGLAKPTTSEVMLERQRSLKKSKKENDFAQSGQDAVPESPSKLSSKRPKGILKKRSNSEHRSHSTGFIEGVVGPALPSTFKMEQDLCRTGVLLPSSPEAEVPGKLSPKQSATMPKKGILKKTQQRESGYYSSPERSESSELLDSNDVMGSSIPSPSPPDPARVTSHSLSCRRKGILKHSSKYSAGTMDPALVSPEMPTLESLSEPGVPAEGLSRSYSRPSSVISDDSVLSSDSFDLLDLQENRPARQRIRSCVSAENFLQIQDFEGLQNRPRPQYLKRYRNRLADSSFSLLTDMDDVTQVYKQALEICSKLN
# UniProt Q9UK32, sequence (whole entry, looked up): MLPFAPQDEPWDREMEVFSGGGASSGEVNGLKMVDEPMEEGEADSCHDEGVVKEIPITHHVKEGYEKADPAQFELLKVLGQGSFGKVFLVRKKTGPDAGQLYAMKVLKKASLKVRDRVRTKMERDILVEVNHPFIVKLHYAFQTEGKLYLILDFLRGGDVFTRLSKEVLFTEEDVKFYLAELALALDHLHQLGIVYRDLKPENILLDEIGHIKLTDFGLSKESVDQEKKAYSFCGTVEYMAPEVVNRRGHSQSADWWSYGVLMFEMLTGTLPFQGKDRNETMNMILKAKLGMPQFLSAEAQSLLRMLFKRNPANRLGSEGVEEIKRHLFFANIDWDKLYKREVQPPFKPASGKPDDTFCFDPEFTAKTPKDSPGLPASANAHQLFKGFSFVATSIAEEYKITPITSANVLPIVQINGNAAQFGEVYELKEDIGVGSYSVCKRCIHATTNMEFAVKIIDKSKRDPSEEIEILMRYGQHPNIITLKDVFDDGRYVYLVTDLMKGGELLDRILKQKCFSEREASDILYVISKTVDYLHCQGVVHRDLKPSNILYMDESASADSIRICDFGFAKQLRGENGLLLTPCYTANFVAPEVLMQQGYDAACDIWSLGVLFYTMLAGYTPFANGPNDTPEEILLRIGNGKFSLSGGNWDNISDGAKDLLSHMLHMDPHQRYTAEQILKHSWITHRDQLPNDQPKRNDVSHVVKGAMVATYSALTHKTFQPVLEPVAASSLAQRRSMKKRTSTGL

# Sample 1
# Target: Fragile X messenger ribonucleoprotein 1, C-terminal low-complexity region (Fmr1, Mus musculus, UniProt P35922)
# Method: RNA Bind-n-Seq
# Molecule type: RNA
# Matrix: in vitro
# Concentration: 200 nM
# Notes: whole 134-nt RNA, ends assumed
# Together with: 150 mM KCl
# Reference: input library
# Direction: higher = stronger binding
# Constant ends, left off below: GGGAGUUCUACAGUCCGACGAUC … UGGAAUUCUCGGGUGUCAAGG
Oligonucleotide,log2 enrichment
AAGUCCUGUGCUACACAUCGUAUGUACCGAAUCGGCCCCCGGCCCCCGGCCCCCGGGAAAGUAUUAUGUUACGCCGUUCGGAUCUGCACU,-0.246
AGUCCUGUGCUACACAUCGUAUGUACCGAAUCGGGGAGGGGAGGGGAAAAAAAGGGGAAAGUAUUAUGUUACGCCGUUCGGAUCUGCACU,0.714
GCAGGAAGUAAAAACAAAUGGAAAUGCUUCGGAUAGUGGCAGGGGUGGGGGUUGCUAAGGAAAGGGUGGGAUGAAAGUGGGUAAAGAGUU,0.546
CUCAAGUCCUGUGCUACACAUCGUAUGUACCGAAUCGGCCGGGGCCGGGCCGGGAAAGUAUUAUGUUACGCCGUUCGGAUCUGCACUUCC,-0.211
CCUCAAGUCCUGUGCUACACAUCGUAUGUACCGAAUCGGUGGGUGGGGUGGGGAAAGUAUUAUGUUACGCCGUUCGGAUCUGCACUUCCA,0.863
CUGUGCUACACAUCGUAUGUACCGAAUCGGCCCCCCCGGGGCCCCCCCGGGGCCCCCCCGGAAAGUAUUAUGUUACGCCGUUCGGAUCUG,-0.805
CCUGUGCUACACAUCGUAUGUACCGAAUCGGGGAGGGGUUUUUUUGGGGUUUUUUUGGGGAAAGUAUUAUGUUACGCCGUUCGGAUCUGC,0.463
UCAAGUCCUGUGCUACACAUCGUAUGUACCGAAUCGGGGCCGGGGCCGGGGCCGGAAAGUAUUAUGUUACGCCGUUCGGAUCUGCACUUC,-0.679

# Sample 2
# Compound: Cc1c(NC(=O)c2cc(C(N)=O)nc3cc(F)ccc23)c(C(F)(F)F)nn1Cc1ccc(C#N)cc1
# Read-out: cell-free assay
# Method: competition with immobilised ligand
# Concentration: 1 µM
target,remaining binding [%]
"Transient receptor potential cation channel subfamily M member 6 (TRPM6, Homo sapiens, UniProt Q9BX84)",87
"Ribosomal protein S6 kinase alpha-6, N-terminal kinase domain (RPS6KA6, Homo sapiens, UniProt Q9UK32)",78
"Rhodopsin kinase GRK1 (GRK1, Homo sapiens, UniProt Q15835)",87
"Eukaryotic translation initiation factor 2-alpha kinase 1 (EIF2AK1, Homo sapiens, UniProt Q9BQI3)",100
"Mitogen-activated protein kinase kinase kinase 12 (MAP3K12, Homo sapiens, UniProt Q12852)",89
"Myosin light chain kinase (MYLK3, Homo sapiens, UniProt Q32MK0)",79
"NUAK family SNF1-like kinase 1 (NUAK1, Homo sapiens, UniProt O60285)",100
"Tyrosine-protein kinase ZAP-70 (ZAP70, Homo sapiens, UniProt P43403)",84
"Leucine-rich repeat serine/threonine-protein kinase 2 (LRRK2, Homo sapiens, UniProt Q5S007)",83
"Dual specificity tyrosine-phosphorylation-regulated kinase 2 (DYRK2, Homo sapiens, UniProt Q92630)",88

# Sample 3
# Target: RNA binding protein fox-1 homolog 2, RRM domain, GST-SBP tag (RBFOX2, Homo sapiens, UniProt O43251-10, residues 100-194)
# Method: RNA Bind-n-Seq
# Molecule type: RNA
# Matrix: in vitro
# Concentration: 365 nM
# Notes: natural RNA segment, single round, ends assumed
# Reference: no-protein control
# Direction: higher = stronger binding
# Constant ends, left off below: GGGAGUUCUACAGUCCGACGAUC … UGGAAUUCUCGGGUGCCAA
# Construct (chain): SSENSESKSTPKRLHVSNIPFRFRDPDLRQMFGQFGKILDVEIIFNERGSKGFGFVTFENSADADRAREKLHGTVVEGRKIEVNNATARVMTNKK
Oligonucleotide,RBNS enrichment (R)
UGUGGCGGGGGCCGGCUCGACAGCCACCGGGCCUUUGUGGUCAAAUACGCACCGGGCCAGGACCUGGAGCUGGGCUGCCACUAUGAUAAUGCCGAGCUCACCCUCAAUGU,0.347
UGAAAUCUUUUUCUCGUUUAGUUGCUCUGUGGGAAAUGUGAGGAAGCCUAAGUUUGUAUUUGUAAAUUUCUUAUGCCAUCCUCUAGUCAAAUUUUUUUUCAUUGUUUAAA,1.01
ACAGACACACAUCCCUUCCCGCCUCCCCCCUGCCUUCAGUAGGAUCUGGCUCCGUGGCUGGAGGACCAACCCCUAUAGUGGGAAUGCAGAGCUUAACGUGUACUGCUUGU,0.435
AAAAUUCCUUAAACAAAGCAUUCCUACAGCGUUUUGCUGGGUGAGAGGAAUCAAACUGGUUCCCUUUCUUUCUGGGAACCCCUGCCAUGUUACUCUAAAGACCCCAGCAA,0.28
UGGCAAUUGCUUCCUCGAAGACAUGGUGUCACCUUGAAUAGGAAUCUCAGGCAAUCGAGACAGAGAGAGCCAGCAAGGGCUGGUACCUGAGGUCAUAUUUCAGACACCCA,0.389
UGCUGUCAGUGUGAUGUGCUUUCUGCAUGGUUAUAUACUACUAGUGAUUUUAUCAAAACUUCUAAAAUUUAAAUUACGUGGUAAAAGAUCUGUAAAAGGCUGCAUAAAUG,0.46
UUUCCCAACAGAAAAGAACAGCCAUUAGAAGAAGGCUCCCAUUUUCUGAUGUUCCGCCCCACUGUGAAGAGUGUGCUCGUUUUAAAUUCAUGUUGAUUCUUGUAAGCACU,0.471
UAUUCUAGGAUCCUAUUAGUCUGCUUUUCAUAUACUGUACUUUGAGUAUAGGGAAUGGGCACUGAGUCACUGAGAACACUUGCAGGGUUGACUUUGCAUAUAGGGCUCCC,0.298

# Single results of other studies
Compound,target,test,setting,how to read,measurement,result
CCCCc1c(-c2ccc(O)cc2)[nH]c2nccnc12,"Serine/threonine-protein kinase OSR1 (OXSR1, Homo sapiens, UniProt O95747)","enzyme activity, inhibitor",0.5 µM,reference: control,remaining activity,95.5%

# Repeated from above (sample 3):
Oligonucleotide,RBNS enrichment (R)
AAAAUUCCUUAAACAAAGCAUUCCUACAGCGUUUUGCUGGGUGAGAGGAAUCAAACUGGUUCCCUUUCUUUCUGGGAACCCCUGCCAUGUUACUCUAAAGACCCCAGCAA,0.28
